Experimental data collected from several papers.
Compare with care: the assays were run in different laboratories. Several values in a cell are separate wells, animals, samples, runs or records. ± gives the spread as reported.
HTR7: 5-hydroxytryptamine receptor 7 (HTR7, Homo sapiens, UniProt P34969)
GUK1: GUK1 (Homo sapiens, UniProt Q16774)
TOP2A: DNA topoisomerase 2-alpha (TOP2A, Homo sapiens, UniProt P11388)

SMILES	tested on	assay	system	setting	scale	endpoint	value
Oc1cc(NCCc2ccccc2)nc(O)n1	G-protein coupled receptor 84 (GPR84, Homo sapiens, UniProt Q9NQS5)	cAMP level, agonist				EC50	0.198 ± 0.052 µM
COc1cccc(OC[C@@H]2CN(CC(=O)N3CCc4ccccc43)CCO2)c1	HTR7	radioligand binding		concentration not given, added: [3H]LSD		inhibition	13.5%
COc1ccc(-c2oc3c(CC=C(C)C)c(O[C@@H]4O[C@H](CO)[C@@H](O)[C@H](O)[C@H]4O)cc(O)c3c(=O)c2O[C@@H]2O[C@@H](C)[C@H](O)[C@@H](O)[C@H]2O[C@@H]2OC[C@@H](O)[C@H](O)[C@H]2O)cc1	Estrogen receptor beta (ESR2, Homo sapiens, UniProt Q92731)	array formation, agonist	GFP-ERβ PRL-HeLa	1 h		EC50	4.71 µM
CC[C@@H](C)[C@@H](NC(=O)[C@@H](Cc1ccc(O)cc1)NC(=O)[C@H]1CCCN1C(=O)[C@@H](CCCNC(=N)N)NC(=O)[C@H](N)Cc1c[nH]cn1)C(=O)N[C@H](C)C(=O)N[C@H](Cc1c[nH]cn1)C(=O)N[C@H](CCCNC(=N)N)C(=O)N[C@@H](C(=O)N[C@H](Cc1ccc(O)cc1)C(=O)N[C@H](CO)C(=O)N[C@H](Cc1ccccc1)C(N)=O)C(C)C	Transferrin receptor protein 1 (Tfrc, Mus musculus, UniProt Q62351)	flow cytometry	DC2.4	24 h, pH 7.4, unit not given	baseline: 0 h	surface expression	0.54 and 0.633
COc1cc(Nc2ncc3c(n2)-c2ccc(Cl)cc2C(c2c(F)cccc2OC)=NC3)ccc1C(=O)O	MAP3K9	kinase activity		1 µM		remaining activity	55%
O=C1c2ccccc2C(=O)C1c1ccccc1	Nedd8-cullin1 interaction	neddylation, AlphaScreen		100 µM		inhibition	33.7%
Nc1ncnc2c1ncn2[C@@H]1O[C@H](COP(=O)(O)CP(=O)(O)OP(=O)(O)O)[C@@H](O)[C@H]1O	P2X purinoceptor 1 (P2RX1, Homo sapiens, UniProt P51575, D170A)	saturation binding	HEK293	25 nM		specific binding	71.5 CCPM and 156 CCPM and 55 CCPM
COc1cnc2cccc(N3CCc4c(cc(Cn5ccnc5C)cc4-c4cn(C)nc4C(F)(F)F)C3=O)c2c1	HEC-1B	cell growth, inhibitor		120 h		EC50	4.07 µM
C1=C/COCc2cc(ccc2OCCN2CCCC2)Nc2nccc(n2)-c2cccc(c2)COC/1	Mitogen-activated protein kinase kinase kinase 13 (MAP3K13, Homo sapiens, UniProt O43283)			concentration not given, kinase construct LZK	baseline: control	binding	61%
NCCCCC(=O)O	Sodium- and chloride-dependent taurine transporter (SLC6A6, Homo sapiens, UniProt P31641, G62A)	binding, microscale thermophoresis		500 µM, room temperature, added: 50 nM labelled protein	higher = more binding	normalised MST signal	-0.00417
O=C(NC1CCC1)c1ccc2nc(-c3cccc(NS(=O)(=O)NCCN4CCCCC4)c3)cn2c1	1-phosphatidylinositol 3-phosphate 5-kinase (PIKFYVE, Homo sapiens, UniProt Q9Y2I7)	enzyme activity		10 µM		remaining activity	82%
Nc1ccc2cc3ccc(N)cc3nc2c1	Chymotrypsinogen A, activated (alpha-chymotrypsin) (Bos taurus, UniProt P00766)	isothermal titration calorimetry		pH 7.4, 25 °C		binding Gibbs energy	-5.951 ± 0.0239 kcal/mol
C[C@H](CS)C(=O)N1CCC[C@H]1C(=O)O	Nedd8-cullin1 interaction	neddylation, AlphaScreen		100 µM		inhibition	1.7%
C[C@H](CCC(C)(C)O)[C@H]1CC[C@H]2[C@@H]3CC=C4C[C@@](C)(O)CC[C@]4(C)[C@H]3CC[C@]12C	Glutamate NMDA receptor; GRIN1/GRIN2B (GRIN1/GRIN2B, Homo sapiens, UniProt Q05586+Q13224, P553A)	positive allosteric modulator, two-electrode voltage clamp	Xenopus oocytes expressing GluN2B-P553A	10 µM, 0.02% cremophor, added: 100 µM glutamate and glycine	baseline: without compound	current response	156 ± 5.6%
O=C1N[C@H](c2cncc(C#Cc3ccccc3)c2)[C@@H](c2ccccc2Cl)O1	Metabotropic glutamate receptor 5 (Macaca mulatta, UniProt A0ACM8QRY8)	PET	rhesus monkey	intravenous, 1.0 mg/kg		receptor occupancy	94.4 ± 0.4%
COc1cc(F)ccc1-c1ncnc(Nc2cccc(C[S@](C)(=N)=O)c2)n1	MAP kinase-activated protein kinase 3 (MAPKAPK3, Homo sapiens, UniProt Q16644)	kinase activity		10 µM, added: 10 µM ATP		remaining activity	90%
Cc1ccc(OC[C@H]2CN(CCN3CCc4ccccc43)CCO2)cn1	5-hydroxytryptamine receptor 2A (HTR2A, Homo sapiens, UniProt P28223)	radioligand binding		concentration not given, added: [3H]ketanserin		inhibition	72.1%
CC(=C/C(=O)O)/C=C/C=C(\C)C1C=C2C(C)(C)CCCC2(C)O1 (centres unmarked)	Rhodopsin (RHO, Homo sapiens, UniProt P08100, P23H)	immunostaining, item: opsin	COS-7 transfected	10.00 µM, unit not given	baseline: surface over total stained cells	plasma membrane localization	0.6

SMILES	tested on	assay	system	setting	scale	endpoint	value
CCOC(=O)C1=C(O)C(=O)N(Cc2ccccc2)C1	Tyrosyl-DNA phosphodiesterase 1 (TDP1, Homo sapiens, UniProt Q9NUW8)	binding, small molecule microarray		added: AF647-labelled TDP1 1 µM	direction not given	Z score	3.14
Nc1ccc(C(=O)O)cc1	BEST1, with wild-type BEST1 (Homo sapiens, UniProt O76090, R218H)	ion current, whole-cell patch clamp	HEK293 co-expressing mutant and wild-type	concentration not given, voltage -80 mV		current density	-8.13 pA/pF and -20.2 pA/pF and -18.4 pA/pF and -10.4 pA/pF and -3.21 pA/pF and -28.4 pA/pF and -12.5 pA/pF and -3.66 pA/pF
N#Cc1ccn2c(-c3ccncc3)c(-c3ccc(F)cc3)nc2c1	Protein kinase C-like 1 (Candida albicans, UniProt P43057)	kinase binding, competitor, MIB/MS competition, item: PKC1	Candida albicans cell lysate	1 µM	baseline: DMSO	log2 fold change	-0.495
O=S(=O)(O)O	GUK1	enzyme activity, NADH-coupled		1 mM, added: ATP 125 µM		reaction velocity	0.0851 µM/s and 0.076 µM/s and 0.0632 µM/s
COC1=C(OC)C(=O)C(CC=C(C)C)=C(C)C1=O	FSP1, ancestral	substrate		co-substrate fixed		Km	2.15 ± 0.36 µM
CCCCC[C@H](O)/C=C/[C@H]1[C@@H]2CO[C@@H](C2)[C@@H]1C/C=C\CCCC(=O)O	Thromboxane A2 receptor (TBXA2R, Homo sapiens, UniProt P21731)	radioligand binding, antagonist		reference compound		Hill coefficient	0.9
N#Cc1ccc2[nH]cc(CCCCN3CCN(c4ccc5oc(C(N)=O)cc5c4)CC3)c2c1	Sodium-dependent serotonin transporter (SLC6A4, Homo sapiens, UniProt P31645, Y495A)	[3H]5-HT uptake, inhibitor	COS-7			Hill coefficient	1.55 ± 0.39
Cc1nc(CSc2nc(SCc3ccc(C(C)C)cc3)nc(=O)[nH]2)cs1	TOP2A	DNA relaxation		500 µM, replicate 2		relaxed DNA	0%
CC(=O)OCC[N+](C)(C)C	CHRNB4/CHRNA6 (Homo sapiens, UniProt P30926+Q15825, E185W)	two-electrode voltage clamp	Xenopus oocytes	α6β4 E155W mutant	baseline: wild type	current	decreased
Cc1ncsc1-c1ccc([C@H](C)NC(=O)[C@@H]2C[C@@H](O)CN2C(=O)[C@@H](NC(=O)CCCCCCCCC(=O)N(CCO)CCCOc2ccc3c(Nc4cc(CC(=O)Nc5cccc(F)c5)[nH]n4)ncnc3c2)C(C)(C)C)cc1	Aurora kinase B (AURKB, Homo sapiens, UniProt Q96GD4)	degrader, Western blot	U-937	1 µM, 24 h		degradation	> 60%
O=C(O)C1CCCNC1 (centres unmarked)	Sodium- and chloride-dependent taurine transporter (SLC6A6, Homo sapiens, UniProt P31641, Y138A)	binding, microscale thermophoresis		488 nM, room temperature, added: 50 nM labelled protein	higher = more binding	normalised MST signal	-0.14
O=c1nc(SCc2cc(F)cc(C(F)(F)F)c2)nc(SCc2ccc3sccc3c2)[nH]1	TOP2A	ATPase activity		7.8 µM, added: ATP 0.075 mM		ATP hydrolysis rate	0.446 µM/min and 0.508 µM/min
O=C1c2ccccc2CCN1CCCCN1CCN(c2ccccn2)CC1	HTR7	radioligand binding		concentration not given, added: [3H]LSD		inhibition	93.3%
CC1CCCN(C(=O)c2cc3ncccn3n2)C1 (centres unmarked)	Baculoviral IAP repeat-containing protein 3, BIR1 domain (BIRC3, Homo sapiens, UniProt Q13489)	binding, affinity selection mass spectrometry			baseline: other proteins in batch	fold enrichment	1.36
Nc1nc2c(ncn2[C@@H]2O[C@H](COP(=O)(O)O)[C@@H](O)[C@H]2O)c(=O)[nH]1	GUK1	enzyme activity, NADH-coupled		15.62 µM, added: KCl 50 mM		reaction velocity	0.0508 µM/s and 0.0413 µM/s and 0.0388 µM/s
CC1(C)CC2(C)OC(=O)NC2(C)c2ccccc21 (centres unmarked)	RFWD3 (Homo sapiens, UniProt Q6PCD5)	binding, affinity selection mass spectrometry			baseline: other proteins in batch	fold enrichment	1.17
Nc1ncnc2c1ncn2[C@@H]1O[C@H](COP(=O)(O)OP(=O)(O)OP(=O)(O)O)[C@@H](O)[C@H]1O	P2X purinoceptor 7 (P2rx7, Rattus norvegicus, UniProt Q64663, I214G)	ion current, agonist, two-electrode voltage clamp	Xenopus laevis oocytes	300 µM	baseline: highest concentration response	normalized current	0.747 and 0.677 and 0.711
